Assay results of several laboratories.
Values joined by “and” are separate records of one study, mostly repeats; a detail may differ. Numbers after ± are the reported error.

SMILES | cell line | assay | test system | setting | how to read | quantity | value
CCn1cc(-c2cc(Cn3ccnc3)cc3c2CCN([C@H](c2cc(OC)ccn2)C2CC2)C3=O)c(C(F)(F)F)n1 | COLO-320-HSR | cell growth, inhibitor |  | 120 h |  | EC50 | > 30 µM
C=Cc1c2[n-]c(c1C)/C=c1\[n-]/c(c(C)c1C=C)=C\c1[n-]c(c(CCC(=O)O)c1C)/C=c1\[n-]c(c(C)c1CCC(=O)O)=C2.[Sn+4] | SH-SY5Y | RNA-seq, measured: MALL mRNA |  | 5 µM, 5 h | relative to: untreated cells | fold change | 65.1
CC(C)NCC(O)c1ccc(O)c(O)c1 (centres unmarked) | mouse ventricular cardiomyocytes |  |  | dose not given, 0.031 s |  | sarcomere length | 1.8 µm
Nc1ccc(-c2ccc3ncc4ccc(=O)n(-c5cccc(C(F)(F)F)c5)c4c3c2)cn1 | BT-16 | cell viability, MTT |  | 10 µM, 72 h |  | inhibition | 94.2%
CC/C(=N\NC(=O)NCc1cccc(O)c1)c1ccc(O)c(C)c1O | SK-OV-3 | Western blot | 3D culture in gellan gum | 20 µM, 1 h, unit not given | relative to: β-actin | YAP protein level | 0.87 ± 0.27
CC1(C)Oc2ccc(CC3=C(c4ccc(O)cc4)C(=O)OC3=O)cc2C[C@@H]1O | RPTEC | qPCR |  | 10 µg/mL, 24 h, basal, no LPS |  | COX-2 mRNA level | no effect
CCn1cc(-c2cc(Cn3ccoc3=N)cc3c2CCN([C@@H](C)c2cc(OC)ccn2)C3=O)c(C(F)(F)F)n1 | CAMA-1 | cell growth, inhibitor |  | 120 h |  | EC50 | 0.923 µM
O=C(O)c1ccc(C2CCCN2Cc2ccc(-c3ccccc3[N+](=O)[O-])o2)cc1 (centres unmarked) | mouse T cells | mixed lymphocyte reaction |  | concentration not given, 7 days | relative to: DMSO | CD4+Foxp3+ Treg reduction | ~10%
O=P1(C2CCCCC2)CCCCC1 | PC-3 | Annexin V-FITC/PI flow cytometry |  | IC50, 72 h |  | late apoptotic cells | 3.45%
CCCCCCCCc1ccc(CCC(N)(CO)CO)cc1 | BT-16 | cell viability, MTT |  | 10 µM, 72 h |  | inhibition | 93.7%
Cn1cc(-c2ccc(-c3cncc(Cl)c3N3CCC4(CCNC4=O)CC3)cc2)cn1 | COLO 205 | gene expression, microarray, measured: CDH11 mRNA |  | concentration not given, 2 h | relative to: untreated cells | log2 fold change | 3.17
CCc1c(-c2ccccc2)c(-c2ccccc2)nn1-c1ccccc1-c1cccc(OCC(=O)O)c1 | mouse bone marrow macrophages | osteoclast differentiation, inhibitor, TRAP staining |  | 0.03 µM, added: M-CSF and RANKL |  | normalized response | 88.5% and 85.3% and 117% and 105% and 96.5% and 78.8%
COc1cnc2cccc(N3CCc4c(cc(Cn5ccnc5C)cc4-c4cn(C)nc4C(F)(F)F)C3=O)c2c1 | Granta-519 | cell growth, inhibitor |  | 120 h |  | EC50 | > 30 µM
CCN(CCO)CCCC(C)Nc1ccnc2cc(Cl)ccc12 (centres unmarked) | human PBMC | qRT-PCR, measured: IFI27 mRNA |  | 1000 nM, added: ssRNA |  | inhibition | 31 ± 21%
Nc1cccc2c1CN(C1CCC(=O)NC1=O)C2=O (centres unmarked) | bone marrow CD138+ myeloma cells | XTT |  | 0.6 µM, phenol red-free RPMI |  | viability | 114%
COC1=CC(c2cc3ccccc3[nH]2)=N/C1=C\c1[nH]c(C)cc1C | BT-16 | cell viability, MTT |  | 10 µM, 72 h |  | inhibition | 93%
C[C@H]1[C@@H](O)O[C@@H]2O[C@@]3(C)CC[C@H]4[C@H](C)CC[C@@H]1[C@@]24OO3 | THP-1 | annexin V/PI flow cytometry, measured: annexin V+/PI- |  | 3.2 µM, 24 h |  | early apoptotic cells | 2.5%
O=C(CC1NCCCC1O)Cn1cnc2cc(Br)c(Cl)cc2c1=O (centres unmarked) | BT-16 | cell viability, MTT |  | 10 µM, 72 h |  | inhibition | 94.7%
O=C(/C=C/C=C/C=C/C1CCCCC1)NC1=C[C@@](O)(/C=C/C=C/C=C/C(=O)NC2=C(O)CCC2=O)[C@@H]2O[C@@H]2C1=O | OUMS-23 | cell growth, CellTiter-Glo |  | 78 h |  | GI50 | 8.36 µM
COc1ccc(NC(=S)N/N=C/c2cccc3cc4ccccc4nc23)cc1 | HeLa | annexin V/PI |  | concentration not given, 48 h, dosed at IC50, added: N-acetylcysteine |  | late apoptotic cells | 9.78%

A few entries again:
SMILES | cell line | assay | test system | setting | how to read | quantity | value
CC1(C)Oc2ccc(CC3=C(c4ccc(O)cc4)C(=O)OC3=O)cc2C[C@@H]1O | RPTEC | qPCR |  | 10 µg/mL, 24 h, basal, no LPS |  | COX-2 mRNA level | no effect
CCn1cc(-c2cc(Cn3ccoc3=N)cc3c2CCN([C@@H](C)c2cc(OC)ccn2)C3=O)c(C(F)(F)F)n1 | CAMA-1 | cell growth, inhibitor |  | 120 h |  | EC50 | 0.923 µM
O=C(O)c1ccc(C2CCCN2Cc2ccc(-c3ccccc3[N+](=O)[O-])o2)cc1 (centres unmarked) | mouse T cells | mixed lymphocyte reaction |  | concentration not given, 7 days | relative to: DMSO | CD4+Foxp3+ Treg reduction | ~10%
